Results pooled from the literature.
A part holds a random share of what one study measured. Substitutions count along the parent as printed.

Set 1 — technique: competition protein-binding microarray; form: double-stranded DNA, one strand shown; medium: in vitro; concentration: 2 µM; together with: Cbf1 competitor, 0.05 µM; direction: higher = stronger binding; constant ends, left off below: … GTCTTGATTCGCTTGACGCTGCTG
Target: Phosphate system positive regulatory protein PHO4, full length, GST-tagged (PHO4, Saccharomyces cerevisiae, UniProt P07270, residues 1-312)
Notes: whole 60-bp probe, lowest competitor level
Construct (chain): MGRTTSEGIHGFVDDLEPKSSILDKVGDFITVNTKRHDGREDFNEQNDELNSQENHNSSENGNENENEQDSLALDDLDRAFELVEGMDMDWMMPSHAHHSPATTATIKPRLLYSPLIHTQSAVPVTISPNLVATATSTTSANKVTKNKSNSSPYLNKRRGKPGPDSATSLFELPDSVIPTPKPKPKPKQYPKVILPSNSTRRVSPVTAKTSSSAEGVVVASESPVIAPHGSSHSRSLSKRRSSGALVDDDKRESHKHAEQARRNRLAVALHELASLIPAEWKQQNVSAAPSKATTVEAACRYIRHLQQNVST
Oligonucleotide	fluorescence intensity [a.u.]
CAGTGGAAACAAGAAAACGTGCTAAATCCAGAACTC	14300
TTACTTTAACCTTTAGTAAATTCAGCGTCTTGACCA	2500
CTTCTGTAAATTTGGGAGGTGGGTGGACGCGCCCCG	4090
ATTTCTTTTTTTCTACACGTTGGTCTGATGTCTCAG	10300
TTGAGCTACCCTTTGCACGTTCTTTCCAATATGCAG	12400
AAATTACTAAGTTGCACGGTGGGTGACGCCGTATGA	7060
CTAACGAAGGTTTGCGTCGTGGGTGACAAGCCAAGT	7250
CTTCTGTAAATTTGAAGGGTGGGTGGACGCGCCCCG	4630
TGAAAAAACCCTTTTCGCGTGCCAGTGATGCTTCCA	7070
TTCAAGGATCGAAAGCACGTCGCATAATACGGTAAT	7710
CCATCAAGTGTTCGTCACGTTTTTGCCGCCGAACTC	14000
GAGACTTTCAGCCATCACGTGTAATAAAATATCACC	12700
TTTCGGCTTCACCTACACGTTTGATTAATCTTAAAG	7200
CGACATTCAGACCTACACGTACAAAACACGAATGCT	6870
CTTTCCCGATCTTGAAATGTGGGTGTAGCACATTTG	6550
CTAACGAAGGTTTGGAGTGTGGGTGACAAGCCAAGT	5370
AATCTTTCAATCGCCATCGTGGGTAAGGATACGCCT	10500
ATCAAATGCTGATACCACATGTATGCTATAGTGTCG	10600
CCGCAGACTTTAAGTGCCGTGACGGGTTCCTGGTTA	3080
CGTCCTAGTGATTGCGTTGTGGGTGCCATGAGGAAG	6860
GTCTTGTCTCATTGTCACCTCACTTTCCCCACTTCA	4940
CATACCCAACCTTGTCACGGCACTTAAGATATTTGT	4290
CTTCTGTAAATTTGGTATGTGGGTGGACGCGCCCCG	5510
CGGGGTTAAGTTTGGGGCGTGGGTGGCTTGCAGCAG	9340

Set 2 — technique: RNA Bind-n-Seq; form: RNA; medium: in vitro; concentration: 100 nM; relative to: input RNA pool; direction: higher = stronger binding
Target: RING finger protein unkempt homolog, zinc fingers 1-6, SBP tag (UNK, Homo sapiens, UniProt Q9C0B0, residues 30-357)
Sequence of UniProt Q9C0B0 (30-357, looked up): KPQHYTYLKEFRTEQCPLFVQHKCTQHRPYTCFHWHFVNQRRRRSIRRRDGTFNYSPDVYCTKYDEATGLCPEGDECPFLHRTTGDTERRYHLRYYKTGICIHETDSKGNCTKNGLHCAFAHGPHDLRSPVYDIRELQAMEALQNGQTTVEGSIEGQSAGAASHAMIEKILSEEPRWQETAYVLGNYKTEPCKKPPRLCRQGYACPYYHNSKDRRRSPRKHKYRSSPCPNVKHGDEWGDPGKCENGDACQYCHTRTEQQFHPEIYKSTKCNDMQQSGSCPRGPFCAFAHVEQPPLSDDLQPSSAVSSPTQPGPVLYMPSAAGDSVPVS
Notes: RNA with constant flanks, vertebrate orthologous sites, ends assumed
Constant ends, left off below: GGGAGUUCUACAGUCCGACGAUC … CAACAGAGGAUUGAGCAUCA
Oligonucleotide	bound/input enrichment [ratio]
CACACUAUAUUGUGGCGUUUAGUCAACAUGGAAGUAGACCAGCUCUGCAGAUUUGAAAUUUAGAUUUUUUUUAAUUAUGUACUGGGGACAGGUUUUUGUCGCUUUACAUUGCUUCCUAGU	4.5
GAGAUCUGGACCUUAUAGACUAACCAGGUUAUUAGCAGAAGUAAAACAAACAUCAGAUUAUAGCUAAGUGCAGCUAUGUACUAUCACUAGCAGCUAUAUAAGUAUUUAUAAAGAACAUUU	0.911
GUGUUGUGUACAGGGCAUUCUCUGUACUAGUUUGUUGUGGUUAUAAAACAUUUAGCAAAACAGCCUACGUUUGUAUUUAUUUUCUGUUCCAUCCUUUGUGCCCCAUGUGUUUUUCUUUUA	0.869
CAGCCAACUCCCUUAUCGGCCGGGCUGCUCACAUCGCCGUCCUCGACUCUGAGAUCUUCCUGGAGAAGUUCUUCCUUGUUGCAGGCCUCAAGUUCUUUCAGUAGAACUGCGACAGAUUCA	0.424
UUGUCUGCCUCAUUCUAAAUUUACACAGUAGACCAUUUGUCAUCCAUGCUGUCCCACAAAUAGUUUUUUUGUUUACGAUUUAUGACAGGUUUAUGUUACUUCUAUUUGAAUUUCUAUAUU	2.06
CAUAAAAUAUUGGAUGCAGUGUAUAAAUUAUCCAAGGCAGUGACUUCAGCUUUAUAUAUAUUGUUGGUUUUUAAGUCAUCUAUAUUUAUUUAAACUUCUAUAUUGGAUUGUUUGCUCAGU	0.275
GGGCUGUGUAGAGUAGGGCCCUGUUCUCCUUAGGAUGUUGCUUCUUGAUUUUUUUUUUUUUAGGGGUGGGUCAGGGUUGUGACACACCAGCCCAGGUGAGAGCUGCUGCGGGUCACCUCA	1.53
AGGGAUGGCCCCCAACCCCACCUCUGUUUAUUCUGUAAACUACAACCUAUAAAUAACCUUUAGCAUUCCUAUUGUAACAAAAUUAAUUUUUAUGAAAUAAAUUAUAUUUCCUAGUCUGAU	1.06
ACACUUAUAUUGUGGCAUAUAGUCAACAUGGAAGUAGACCAGCUCUGCUGAUUGGAAAUUUAGAUUUUUUUAAUUAUGUACUGGGGACAGGUUUUUGUCGCUUUACAUUGCUUCCUAGUU	3.36
CAGCUGAUUCACUAAUUGGAAGAGCUGCCCAUAUAGCUGUUCUUGAUUCAGAAAUAUUUUUAGAAAAAUUCUUUCUGGUUGCUGCCCUCAAAUAUUUCCAGUAGGAUAAAAGCAUUGUUA	0.873
CACUCAACUUGUUCUAACUUGUGACCCUUCAGCGUUGAGUCAGGCAUUAAUGCCAGGUACUAGAACUUUUUGUUUCUCUCUUACCACUGAGCAGAGAGAUCUUAGAAGCAGAAAUCCACG	0.447

Set 3 — target: CCND2, cyclin fold, Cln2 fusion (human); technique: yeast growth competition, sequencing; medium: yeast; notes: weak parent motif; relative to: not given; direction: higher = stronger binding
Starting sequence: CDC6 docking peptide (human); TLKGRRLVFDNQL; partner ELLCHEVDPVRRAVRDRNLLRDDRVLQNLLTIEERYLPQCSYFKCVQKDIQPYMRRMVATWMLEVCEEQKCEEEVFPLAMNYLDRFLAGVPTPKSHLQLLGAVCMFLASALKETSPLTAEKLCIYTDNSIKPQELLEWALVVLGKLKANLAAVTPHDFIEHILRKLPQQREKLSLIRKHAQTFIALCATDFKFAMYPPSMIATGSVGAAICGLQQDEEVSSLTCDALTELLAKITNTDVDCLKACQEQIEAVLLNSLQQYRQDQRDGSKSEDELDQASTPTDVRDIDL
Variant	normalised enrichment score
TLKGRRLVLDNQL [F9L]	-0.0983
TLKGRRLVFDWQL [N11W]	0.491
TLPGRRLVFDNQL [K3P]	0.313
TLKGRRLVGDNQL [F9G]	-0.0273
TLKGRRLVFENQL [D10E]	-0.573
TLKGRRPVFDNQL [L7P]	-0.205
TLKVRRLVFDNQL [G4V]	0.385
TLKGRRIVFDNQL [L7I]	0.635
TLKGRVLVFDNQL [R6V]	0.787
TLKGRRLVFDVQL [N11V]	0.349
TWKGRRLVFDNQL [L2W]	0.444
TLKGRRGVFDNQL [L7G]	-0.0685
TLKGRRLVEDNQL [F9E]	0.452
TLCGRRLVFDNQL [K3C]	0.397
TLKGRYLVFDNQL [R6Y]	0.244
TLKGRRLVFDRQL [N11R]	0.476
TLKGRRLVYDNQL [F9Y]	-0.175

Set 4 — technique: RNA Bind-n-Seq; form: RNA; medium: in vitro; concentration: 365 nM; relative to: no-protein control; direction: higher = stronger binding
Target: RNA binding protein fox-1 homolog 2, RRM domain, GST-SBP tag (RBFOX2, Homo sapiens, UniProt O43251-10, residues 100-194)
Notes: natural RNA segment, single round, ends assumed
Constant ends, left off below: GGGAGUUCUACAGUCCGACGAUC … UGGAAUUCUCGGGUGCCAA
Residues (chain): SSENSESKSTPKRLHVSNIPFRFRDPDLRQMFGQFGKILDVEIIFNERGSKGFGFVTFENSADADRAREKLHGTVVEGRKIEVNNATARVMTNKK
Oligonucleotide	RBNS enrichment (R)
AUGUUAAUUGCUUCCCAGUUGGUUGACCUUAUAAGAAAACACUGUGUGGUAUUUUAAUGUGGUAAACAUGUGAAUGAAGGCCUGUGGCUCAGUUAAUCACUCCCACAACU	0.244
GGAAAAUGCUCAAGGAUUUGAAGGGGUGGAUUAGCACCCUGUGCCUCGGGGGUGGUUGUUCUUCAAGCAAGUUCUGCUUGCACUUUUGCAUUUGCCUAACAGACUUUUGC	0.595
AUGGCGCUAGGGCUCUCAGCCUCCUAGAAGGAAGGGACUAAGGAGACGGGCACAGACUUGCGUCAUCUCGUUUCCACAGUUGACGUUUUAUAUUACUUUCUCAAAUUAAG	0.566
ACGACGCUGUUCUUAGUUCACUAAUGUUAGCCUUAUUUAGGACAAAGUCAGCCAGACACCUUGUACUGGGCACGCGUCAGACCACAGCCGGCCGUUUCCUUUCUUUAGCC	0.443
AGGACUCAAAGGCAAGGUGCACGCAGAGGACGUUUGAGUCUGGGAUGAAGCAUGUACGUAUUAUUUAUAUGAUGGAAUUUCACGUUUUUAUGUAAGCAUGAAACACAGGC	15
CCCCAACAGACACUGACAGGGUCCAUGGAAUUCUUCGGGAAAUCCUCCAAGGACUCUUGUCAGCUGUGUUGGAAGCCAAAGCCAGCUUAGUGGGACUUCCGCGUCUCUCC	0.249
GGUGGGGGAGACAUAGCCCCACCAUGAGGACAUACAACUGGGAAAUACUGAAACUUGCUGCCUAUUGGGUAUGCUGAGGCCCCACAGACUUACAGAAGAAGUGGCCCUCC	0.361
GUACAGGCUAGAAAAGAGUUCUCAACCAGGCUUAACUGGAGUGGUCUCAGAAAGCCAUCAACAGGCUCUGGUAAAACAUAGGUAAAAAUGGGUGAUUAUGAUUGACACUC	0.626
AAGUUGAGAUUCACUGAUUACAGUCAGGUGGAUCCAUAUGUGUAGCCUCCUUUCGCAGCCAGCCUGGGAUAGAGUUACUGACAUUUGAGGGCUGGCCAUCUUUCACCAUG	0.257
AUUAUUUAUAAAUUCCACCCAAAGUGGACAGAGUCAGGUGCCAGACCUGAUCUGAAGUGCACCAAGGAAGUAUCUGGUGGUUCUCCUGAGAUGGGGGCCUUGCAGCCCAG	0.618
UCUAGGCACUACAUAUGUAAUUGGUAAAGAAAAGGCAUUUUCUUAAGAGUUAUAACUAUGUAAACAUUGUAUAAUGAUAUGAAAUAAAACGCACAUUUAGGACAUUUUCU	0.445
AUUACCACACCCUUCCCAGGGACCAGCACCUUUAAGCACUCCAGGGCCUUGAGGGAAUAAGGGGCCCCUGGCUCUGGGGACCCACCCGGUGGGACUUAGUGGUGAGACAC	0.408

Set 5 — technique: DHFR PCA, deep sequencing; medium: yeast; together with: (+)-ABA 0 µM; relative to: wild-type fitted maximum; direction: higher = stronger binding
Target: ABI1, truncated, D143A, DHFR fusion (Arabidopsis thaliana)
Notes: methotrexate growth selection, single substitutions
Starting sequence: PYL1, truncated, DHFR fusion (Arabidopsis thaliana); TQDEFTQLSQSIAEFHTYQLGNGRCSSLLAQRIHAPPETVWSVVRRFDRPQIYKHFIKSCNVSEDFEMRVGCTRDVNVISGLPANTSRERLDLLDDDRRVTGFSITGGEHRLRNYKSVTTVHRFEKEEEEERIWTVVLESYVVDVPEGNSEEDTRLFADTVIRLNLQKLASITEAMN
Variant	relative binding score
T106N	-9.29%
D144W	-10.1%
G102K	-0.968%
T119G	-2.39%
F15L	2.5%
R90D	-2.92%
Q31F	-1.5%
D95Y	-7.79%
T173F	-9.42%
V78C	33.4%
T173K	-1.48%
D95W	-3.63%
S117Q	4.12%
E125A	40.8%
V76H	-9.19%
E131N	46.4%
R49M	17.2%
V44Q	-2.33%
E4T	11%

For quick reference, copied from above (set 2):
Oligonucleotide	bound/input enrichment [ratio]
UUGUCUGCCUCAUUCUAAAUUUACACAGUAGACCAUUUGUCAUCCAUGCUGUCCCACAAAUAGUUUUUUUGUUUACGAUUUAUGACAGGUUUAUGUUACUUCUAUUUGAAUUUCUAUAUU	2.06
CAUAAAAUAUUGGAUGCAGUGUAUAAAUUAUCCAAGGCAGUGACUUCAGCUUUAUAUAUAUUGUUGGUUUUUAAGUCAUCUAUAUUUAUUUAAACUUCUAUAUUGGAUUGUUUGCUCAGU	0.275
GGGCUGUGUAGAGUAGGGCCCUGUUCUCCUUAGGAUGUUGCUUCUUGAUUUUUUUUUUUUUAGGGGUGGGUCAGGGUUGUGACACACCAGCCCAGGUGAGAGCUGCUGCGGGUCACCUCA	1.53
AGGGAUGGCCCCCAACCCCACCUCUGUUUAUUCUGUAAACUACAACCUAUAAAUAACCUUUAGCAUUCCUAUUGUAACAAAAUUAAUUUUUAUGAAAUAAAUUAUAUUUCCUAGUCUGAU	1.06
ACACUUAUAUUGUGGCAUAUAGUCAACAUGGAAGUAGACCAGCUCUGCUGAUUGGAAAUUUAGAUUUUUUUAAUUAUGUACUGGGGACAGGUUUUUGUCGCUUUACAUUGCUUCCUAGUU	3.36
